Assay results from different studies.
Each numbered part is a random draw from the data of one study; scales do not carry over between parts.

Block 1 — technique: universal PBM; molecule type: double-stranded DNA, one strand shown; medium: in vitro; concentration: not given; reading: higher = stronger binding; measurement: E-score
Target: Sal-like protein 4, full length isoform B (SALL4, Homo sapiens, UniProt Q9UJQ4-2, residues 1-616)
Notes: 8-mer, flanks averaged, mean of replicates
Target sequence (chain): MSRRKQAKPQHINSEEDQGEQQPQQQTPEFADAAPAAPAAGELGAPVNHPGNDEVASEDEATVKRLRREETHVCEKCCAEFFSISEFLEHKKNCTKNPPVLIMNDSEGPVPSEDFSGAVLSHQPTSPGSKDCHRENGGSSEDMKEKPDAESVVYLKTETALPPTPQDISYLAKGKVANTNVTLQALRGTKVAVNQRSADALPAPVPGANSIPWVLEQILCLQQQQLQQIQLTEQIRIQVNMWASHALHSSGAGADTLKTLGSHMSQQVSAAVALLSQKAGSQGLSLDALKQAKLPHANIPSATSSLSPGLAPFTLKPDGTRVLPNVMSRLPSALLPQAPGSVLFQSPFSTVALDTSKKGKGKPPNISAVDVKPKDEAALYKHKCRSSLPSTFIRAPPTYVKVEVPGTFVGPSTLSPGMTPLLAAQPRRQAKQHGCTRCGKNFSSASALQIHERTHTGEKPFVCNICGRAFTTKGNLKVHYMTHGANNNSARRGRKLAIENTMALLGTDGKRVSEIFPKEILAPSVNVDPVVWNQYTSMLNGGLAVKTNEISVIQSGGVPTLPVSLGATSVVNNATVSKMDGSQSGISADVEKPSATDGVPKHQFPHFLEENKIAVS
Oligonucleotide = CGCAGACA; result = -0.0392
Oligonucleotide = GACGGACC; result = -0.275
Oligonucleotide = CGGATTGA; result = -0.125
Oligonucleotide = GACGTCTC; result = -0.0966
Oligonucleotide = AGTCCGCA; result = -0.191
Oligonucleotide = CCGTTCAA; result = -0.0176
Oligonucleotide = CGCCTCCA; result = -0.0519

Block 2 — technique: protein-binding microarray; molecule type: double-stranded DNA, one strand shown; medium: in vitro; concentration: not given; reading: higher = stronger binding; measurement: E-score
Target: Max dimerization protein 1, bHLH-zipper, MAX partner unstated (MXD1, Homo sapiens, UniProt Q05195, residues 56-136)
Notes: k-mer, scored over probes, only values ≥0.25
Target sequence (chain): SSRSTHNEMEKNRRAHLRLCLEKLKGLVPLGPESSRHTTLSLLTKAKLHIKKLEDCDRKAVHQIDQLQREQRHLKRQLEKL
Oligonucleotide = CGTGTGAC; result = 0.276
Oligonucleotide = CGCATGTA; result = 0.373
Oligonucleotide = CATGCCTC; result = 0.368
Oligonucleotide = GGGGGGCA; result = 0.322
Oligonucleotide = CATGGCAC; result = 0.307

Block 3 — technique: protein binding microarray; molecule type: double-stranded DNA, one strand shown; medium: in vitro; concentration: not given; baseline: not given; reading: higher = stronger binding; measurement: E-score
Target: Histone acetyltransferase KAT6A, winged helix 1, GST fusion (KAT6A, Homo sapiens, UniProt Q92794, residues 1-85)
Notes: 8-mer, flanks averaged, mean of 2 arrays, mostly near background
Construct (chain): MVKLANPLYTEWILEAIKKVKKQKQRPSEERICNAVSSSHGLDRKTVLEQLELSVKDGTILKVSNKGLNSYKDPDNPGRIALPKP
Oligonucleotide = CGCGATTA; result = 0.0903
Oligonucleotide = GGCAAACC; result = 0.122
Oligonucleotide = AGAAGGCC; result = 0.124
Oligonucleotide = ACCATCTG; result = -0.0762
Oligonucleotide = CGGGTGTA; result = 0.175
Oligonucleotide = GATGGGCA; result = -0.17

Mixed results
Substance = PhoQ, residues 284 288 289 292 302 303 SSTMSV; target = PhoP, residues 12 14 15 18 19 SMASL (Escherichia coli, UniProt P23836); assay = Sort-seq, refers to: YFP reporter; test system = E. coli; conditions = PhoQ-PhoP variant library, together with: 10 µM Mg2+; how to read = baseline: high Mg2+ state, higher = stronger signaling; measurement = fold induction; result = 0.853

A few entries again (block 1):
Oligonucleotide = CGCCTCCA; result = -0.0519
Oligonucleotide = CCGTTCAA; result = -0.0176
